Results from different studies.
Compare with care: the assays were run in different laboratories. Values joined by “and” are separate records of one study, mostly repeats; a detail may differ. ± gives the spread as reported.

CSc1cc(Oc2ccnc3[nH]c(=O)cnc23)ccc1NC(=O)Nc1cc(C(C)(C)C)nn1-c1ccccc1 — phospho-Thr359/Ser363 RSK1-3 to total ratio (p90 ribosomal S6 kinases 1-3; reverse phase protein array; patient-derived cell lines; 1 µM, 4 h, mean of three patients; reference: DMSO): 0.63
CN(C)CCCn1c(=O)c2ccc3c(=O)n(CCCN(C)C)c(=O)c4c5[nH]c6cc(C(=O)O)ccc6[nH]c5c(c1=O)c2c34 — ΔTm (HIV-1 LTR-III G-quadruplex; FRET melting; 0.25 µM, K+ 100 mM): 5 ± 0.7 °C
O=C(O)COCCN1CCN([C@H](c2ccccc2)c2ccc(Cl)cc2)CC1 — trans-stimulation ratio (human H+/organic cation antiporter; hCMEC/D3; 250 µM, 2 min, added: 1 µM DPH preloading 30 min; reference: control): 0.91
Cc1nc(C)c(-c2ccnc(Nc3ccc(Cl)cc3)n2)s1 — Kd (CDK2 (Homo sapiens, UniProt P24941); average of ITC, Octet and Thermofluor; untagged protein): 6.43 µM
Cc1c(N)c(=O)n(-c2ccccc2)n1C — trans-stimulation ratio (human H+/organic cation antiporter; hCMEC/D3; 250 µM, 2 min, added: 1 µM DPH preloading 30 min; reference: control): 1.09
N#Cc1ccn2c(-c3ccncc3)c(-c3ccc(F)cc3)nc2c1 — log2 fold change (orf19.6492 kinase Candida albicans; MIB/MS competition binding; Candida albicans cell lysate; 100 nM; reference: DMSO, lower = stronger binding): 0.133
CNC(=O)c1ccc(Nc2ncc(C(F)(F)F)c(NCc3nccnc3N(C)S(C)(=O)=O)n2)cc1 — inhibition (phosphodiesterase panel; inhibitor; up to 10 µM, weak PDE2A inhibition): no inhibition
N#Cc1ccc2c(-c3ccncc3)c(-c3ccc(F)cc3)nn2c1 — log2 fold change (orf19.6492 kinase Candida albicans; MIB/MS competition binding; Candida albicans cell lysate; 10 µM; reference: DMSO, lower = stronger binding): 0.224
Oc1ccccc1-c1n[nH]cc1-c1ccnc2ccccc12 — log2 fold change (RIM15 (Candida albicans); kinase binding, MIB/MS competition; Candida albicans lysate; 10 µM; reference: DMSO): -0.31
NCCCOc1cc(NC(=O)c2cccc(C(=O)Nc3cc(OCCCN)c4ccccc4n3)n2)nc2ccccc12 — ΔTm (Bcl2 G-quadruplex DNA; FRET melting; 1 µM, pH 7.4, added: 60 mM potassium): 22.7 ± 0.7 K
COc1cc(C(=O)NS(=O)(=O)c2ccccc2C)ccc1Cc1cn(C)c2ccc(NC(=O)OC3CCCC3)cc12 — inhibition (native VRAC; ion current, inhibitor, whole-cell patch clamp; wild-type HCT cells; 1 µM, pH 6.0, extracellular pH): 17.9% and 1.82% and 30.3% and 4.83% and 16.4%
NCCOc1cc(NC(=O)c2cc(OCc3ccc(F)cc3)cc(C(=O)Nc3cc(OCCN)c4ccccc4n3)n2)nc2ccccc12 — ΔTm (Bcl2 G-quadruplex DNA; FRET melting; 1 µM, pH 7.4, added: 60 mM potassium): 13.2 ± 0.8 K
Cc1n[nH]c2ccc(-c3cc(OC[C@@H](N)Cc4ccccc4)cnc3-c3ccoc3)cc12 — log2 fold change (orf19.6492 kinase Candida albicans; MIB/MS competition binding; Candida albicans cell lysate; 100 nM; reference: DMSO, lower = stronger binding): -0.282
CN(C)CCCn1c(=O)c2cc(Br)c3c(=O)n(CCCN(C)C)c(=O)c4c5[nH]c6ncccc6[nH]c5c(c1=O)c2c34 — ΔTm (HIV-1 LTR-III G-quadruplex; FRET melting; 0.25 µM, K+ 100 mM): 1.5 ± 0.1 °C
CC(Sc1nc2ccccc2[nH]1)C(=O)Nc1ccc(S(N)(=O)=O)cc1 (centres unmarked) — Kd (Cyclin-dependent kinase 2, with cyclin A (CDK2, Homo sapiens, UniProt P24941)): > 100 µM
CC(C)c1ccccc1O — average chemical shift perturbation (HBV core protein Cp149 dimer; solution NMR; 4 molar equivalents, pH 7.5, 295 K, average over eight residues; reference: apo Cp149 dimer): 0.036 ppm
Cn1cc(-c2ccc(-c3cncc(Cl)c3N3CCC4(CCNC4=O)CC3)cc2)cn1 — log2 fold change (COLO 205; gene expression, microarray, measured: MDM2 mRNA; concentration not given, 2 h; reference: untreated cells): 1.85
COC1=C(OC)C(=O)C(CC=C(C)C)=C(C)C1=O — kcat (FSP1 L323A mutant; substrate; added: 100 µM co-substrate): 12.8 ± 0.95 s⁻¹
C#CCOc1cc(C(=O)Nc2cc(OCCN)c3ccccc3n2)nc(C(=O)Nc2cc(OCCN)c3ccccc3n2)c1 — ΔTm (Bcl2 G-quadruplex DNA; FRET melting; 1 µM, pH 7.4, added: 60 mM potassium): 14.6 ± 0.5 K
CCCCCCCC(=O)OC[C@H](COP(=O)(O)O[C@@H]1[C@H](O)[C@H](O)[C@@H](OP(=O)(O)O)[C@H](OP(=O)(O)O)[C@H]1O)OC(=O)CCCCCCC — efficacy factor E2 (Kv7.2/Kv7.3(EEE) mutant channel; channel open probability, activator, fitted PIP2 binding model; model 4, K3 constrained; reference: channel without bound PIP2): 0
COc1cc(-c2cn(C)c(=O)c3cnccc23)cc(OC)c1CN1CCN(CCCCCOc2cc(-c3scnc3C)ccc2CNC(=O)[C@@H]2C[C@@H](O)CN2C(=O)[C@@H](NC(=O)C2(F)CC2)C(C)(C)C)CC1 — cooperativity alpha (VHL-elongin C-elongin B and BRD9; SPR; immobilized VHL-elongin C-elongin B; reference: binary KD over ternary KD): 0.85
O=C(Nc1cc(OCCN2CCCC2)c2ccccc2n1)c1cc(OCCN2CCCC2)cc(C(=O)Nc2cc(OCCN3CCCC3)c3ccccc3n2)n1 — ΔTm (Bcl2 G-quadruplex DNA; FRET melting; 1 µM, pH 7.4, added: 60 mM potassium): 15.6 ± 1.1 K
c1ccc(-c2n[nH]cc2-c2ccnc3ccccc23)nc1 — log2 fold change (orf19.4144 kinase Candida albicans; MIB/MS competition binding; Candida albicans cell lysate; 10 µM; reference: DMSO, lower = stronger binding): 1.52
NCCCOc1cc(NC(=O)c2cc(OCCN)cc(C(=O)Nc3cc(OCCCN)c4ccccc4n3)n2)nc2ccccc12 — ΔTm (Bcl2 G-quadruplex DNA; FRET melting; 1 µM, pH 7.4, added: 60 mM potassium): 21 ± 1 K
C[C@@H](N)COc1ccc(-c2cnc3ccc(N[C@H](C)c4cccc(F)c4)nn23)cc1 — IC50 (TRKA, TRKB, TRKC, geometric mean; inhibitor): 0.0047 µM
O=C(Nc1cc(OCCN2CCCC2)c2ccccc2n1)c1cc(OCc2ccc(F)cc2)cc(C(=O)Nc2cc(OCCN3CCCC3)c3ccccc3n2)n1 — ΔTm (Bcl2 G-quadruplex DNA; FRET melting; 1 µM, pH 7.4, added: 60 mM potassium): 6.7 ± 0.5 K
c1coc(-c2n[nH]cc2-c2ccnc3ccccc23)c1 — log2 fold change (orf19.3456 Candida albicans; kinase binding, MIB/MS competition; Candida albicans lysate; 1 µM; reference: DMSO): -0.32
CN(C)CCCn1c(=O)c2cc(Br)c3c(=O)n(CCCN(C)C)c(=O)c4c5[nH]c6ccccc6[nH]c5c(c1=O)c2c34 — ΔTm (HIV-1 LTR-III G-quadruplex; FRET melting; 0.25 µM, K+ 100 mM): 7 ± 0.7 °C
CN(C)CCOc1cc(NC(=O)c2cc(Cl)cc(C(=O)Nc3cc(OCCN(C)C)c4ccccc4n3)n2)nc2ccccc12 — ΔTm (Bcl2 G-quadruplex DNA; FRET melting; 1 µM, pH 7.4, added: 60 mM potassium): 11.5 ± 0.9 K

Repeated from above:
N#Cc1ccc2c(-c3ccncc3)c(-c3ccc(F)cc3)nn2c1 — log2 fold change (orf19.6492 kinase Candida albicans; MIB/MS competition binding; Candida albicans cell lysate; 10 µM; reference: DMSO, lower = stronger binding): 0.224
Oc1ccccc1-c1n[nH]cc1-c1ccnc2ccccc12 — log2 fold change (RIM15 (Candida albicans); kinase binding, MIB/MS competition; Candida albicans lysate; 10 µM; reference: DMSO): -0.31
